Experimental data pooled from the literature.
Several values in a cell are separate wells, animals, samples, runs or records. ± marks the error that the study gave.
U2AF2: U2AF2 148-342 (Homo sapiens, UniProt P26368)
Sequence of UniProt P26368 (whole entry, looked up): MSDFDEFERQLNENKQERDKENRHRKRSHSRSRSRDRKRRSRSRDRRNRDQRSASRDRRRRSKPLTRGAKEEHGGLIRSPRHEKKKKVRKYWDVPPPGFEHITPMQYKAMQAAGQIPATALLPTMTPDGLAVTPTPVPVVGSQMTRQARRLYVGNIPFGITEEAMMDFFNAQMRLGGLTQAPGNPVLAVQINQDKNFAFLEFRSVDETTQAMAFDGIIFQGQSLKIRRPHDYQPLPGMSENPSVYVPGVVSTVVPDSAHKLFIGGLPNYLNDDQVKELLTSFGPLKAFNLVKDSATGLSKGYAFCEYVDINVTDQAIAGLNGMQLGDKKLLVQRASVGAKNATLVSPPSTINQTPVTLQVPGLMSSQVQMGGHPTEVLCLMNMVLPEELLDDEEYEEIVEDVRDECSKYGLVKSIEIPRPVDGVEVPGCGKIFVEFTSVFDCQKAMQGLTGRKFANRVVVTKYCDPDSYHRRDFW
B1: human PABP4; sequence looked up; chain MNAAASSYPMASLYVGDLHSDVTEAMLYEKFSPAGPVLSIRVCRDMITRRSLGYAYVNFQQPADAERALDTMNFDVIKGKPIRIMWSQRDPSLRKSGVGNVFIKNLDKSIDNKALYDTFSAFGNILSCKVVCDENGSKGYAFVHFETQEAADKAIEKMNGMLLNDRKVFVGRFKSRKEREAELGAKAKEFTNVYIKNFGEEVDDESLKELFSQFGKTLSVKVMRDPNGKSKGFGFVSYEKHEDANKAVEEMNGKEISGKIIFVGRAQKKVERQAELKRKFEQLKQERISRYQGVNLYIKNLDDTIDDEKLRKEFSPFGSITSAKVMLEDGRSKGFGFVCFSSPEEATKAVTEMNGRIVGSKPLYVALAQRKEERKAHLTNQYMQRVAGMRALPANAILNQFQPAAGGYFVPAVPQAQGRPPYYTPNQLAQMRPNPRWQQGGRPQGFQGMPSAIRQSGPRPTLRHLAPTGSECPDRLAMDFGGAGAAQQGLTDSCQSGGVPTAVQNLAPRAAVAAAAPRAVAPYKYASSVRSPHPAIQPLQAPQPAVHVQGQEPLTASMLAAAPPQEQKQMLGERLFPLIQTMHSNLAGKITGMLLEIDNSELLHMLESPESLRSKVDEAVAVLQAHHAKKEAAQKVGAVAAATS
B2: POF1B (human); sequence looked up; chain MSSSYWSETSSSSCGTQQLPEVLQCQPQHYHCYHQSSQAQQPPEKNVVYERVRTYSGPMNKVVQALDPFNSREVLSPLKTTSSYQNLVWSDHSQELHSPTLKISTCAPSTLHITQNTEQELHSPTVKLTTYPQTTIRKYVVQNPEQEPLSQFLRGSHFFPGNNVIYEKTIRKVEKLNTDQGCHPQAQCHHHIIQQPQVIHSAHWQQPDSSQQIQAITGNNPISTHIGNELCHSGSSQICEQVIIQDDGPEKLDPRYFGELLADLSRKNTDLYHCLLEHLQRIGGSKQDFESTDESEDIESLIPKGLSEFTKQQIRYILQMRGMSDKSLRLVLSTFSNIREELGHLQNDMTSLENDKMRLEKDLSFKDTQLKEYEELLASVRANNHQQQQGLQDSSSKCQALEENNLSLRHTLSDMEYRLKELEYCKRNLEQENQNLRMQVSETCTGPMLQAKMDEIGNHYTEMVKNLRMEKDREICRLRSQLNQYHKDVSKREGSCSDFQFKLHELTSLLEEKDSLIKRQSEELSKLRQEIYSSHNQPSTGGRTTITTKKYRTQYPILGLLYDDYEYIPPGSETQTIVIEKTEDKYTCP
B3: human TRIM28; sequence looked up; chain AASAAAASAAAASAASGSPGPGEGSAGGEKRSTAPSAAASASASAAASSPAGGGAEALELLEHCGVCRERLRPEREPRLLPCLHSACSACLGPAAPAAANSSGDGGAAGDGTVVDCPVCKQQCFSKDIVENYFMRDSGSKAATDAQDANQCCTSCEDNAPATSYCVECSEPLCETCVEAHQRVKYTKDHTVRSTGPAKSRDGERTVYCNVHKHEPLVLFCESCDTLTCRDCQLNAHKDHQYQFLEDAVRNQRKLLASLVKRLGDKHATLQKSTKEVRSSIRQVSDVQKRVQVDVKMAILQIMKELNKRGRVLVNDAQKVTEGQQERLERQHWTMTKIQKHQEHILRFASWALESDNNTALLLSKKLIYFQLHRALKMIVDPVEPHGEMKFQWDLNAWTKSAEAFGKIVAERPGTNSTGPAPMAPPRAPGPLSKQGSGSSQPMEVQEGYGFGSGDDPYSSAEPHVSGVKRSRSGEGEVSGLMRKVPRVSLERLDLDLTADSQPPVFKVFPGSTTEDYNLIVIERGAAAAATGQPGTAPAGTPGAPPLAGMAIVKEEETEAAIGAPPTATEGPETKPVLMALAEGPGAEGPRLASPSGSTSSGLEVVAPEGTSAPGGGPGTLDDSATICRVCQKPGDLVMCNQCEFCFHLDCHLPALQDVPGEEWSCSLCHVLPDLKEEDGSLSLDGADSTGVVAKLSPANQRKCERVLLALFCHEPCRPLHQLATDSTFSLDQPGGTLDLTLIRARLQEKLSPPYSSPQEFAQDVGRMFKQFNKLTEDKADVQSIIGLQRFFETRMNEAFGDTKFSAVLVEPPPMSLPGAGLSSQELSGGPGDGP
Sequence of UniProt P13393 (whole entry, looked up): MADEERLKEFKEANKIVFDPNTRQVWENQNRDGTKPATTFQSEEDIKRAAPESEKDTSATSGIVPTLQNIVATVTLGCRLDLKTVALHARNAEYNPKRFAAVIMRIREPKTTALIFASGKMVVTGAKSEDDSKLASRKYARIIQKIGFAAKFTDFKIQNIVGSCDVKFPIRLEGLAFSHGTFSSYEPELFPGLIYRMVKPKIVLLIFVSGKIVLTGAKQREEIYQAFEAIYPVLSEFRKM

`B1 (human PABP4)`: “log2 fold change” 0.86 (CYB5R4 knockout human cells; PP4 interaction, 3xFLAG-PP4C IP-MS; concentration not given; relative to: CYB5R4 KO over parental).
With `Peginesatide` the phosphorylation level was 4.9 fold (UT7/EPO; tyrosine phosphorylation, LC-MS/MS phosphoproteomics, GluC, measured: GRB2 tyrosine 52; 10 nM, 15 min, together with: 10 U/mL EPO; relative to: vehicle).
`Nisin` gave a nucleoid length of 1.43 µm and 1.52 µm and 1.46 µm (Bacillus subtilis; ATCC 6633; concentration not given).
With `GSGAGIATEV` the binding intensity was 0.741 (construct, MBP fusion, human SCRIB, PDZ 3-4; automated holdup; peptide, crude extract; concentration not given, uncorrected, unit not given; relative to: biotin control resin, higher = stronger binding).
With `epoetin alfa` the mRNA level was 3.6 fold (UT7/EPO; microarray, measured: RAB11FIP1 mRNA (probe set 225177_at); 5 U/mL, 90 min; relative to: vehicle).
For `GSGAGKETSF`, the binding intensity was 0.606 (construct, MBP fusion, human SCRIB, PDZ 3-4; automated holdup; peptide, purified PDZ protein; concentration not given, unit not given; relative to: biotin control resin, higher = stronger binding).
The protein level of `maraviroc` is reported as 2.91 fold (Western blot; HIV-infected mice, somatosensory cortex; i.p., 120 mg/kg twice daily, 3 weeks post infection; relative to: HIV-infected untreated mice, decrease).
`human filamin B` — result for “log2 fold change”: -0.19 (PP6C (human); co-immunoprecipitation, IP-MS; CYB5R4 knockout cells; concentration not given; relative to: CYB5R4 knockout over parental).
`cotadutide` gave a metabolite level of 0.92 ± 0.07 scaled intensity (metabolomics, measured: hepatic asparagine; ob/ob mice on AMLN diet, NASH model, liver; dose not given).
`EVDPIGYDF` gave a GFP-positive cells of 0.438% (Jurkat expressing engineered TCR; NFAT-eGFP reporter, fluorescence microscopy; peptide; concentration not given, HLA-A*01:01 on EL4 cells).
`B2 (POF1B)` — result for “log2 fold change”: 2.28 (CYB5R4 knockout human cells; PP6 interaction, 3xFLAG-PP6C IP-MS; concentration not given; relative to: CYB5R4 KO over parental).
With `GUUCUUAUU (ssRNA)` the Kd was 2490 nM (U2AF2; sequencing of bound RNA; RNA; motif only).
With `CTCAGGAATTCCTCTAAAGTAATGTGGAGCTCAGTTCAAGTCAATCGGTCC (dsDNA; 5'-amino-C6 primer)` the Kd was 9.84 ± 0.31 nM (SPT15 full length assumed (Saccharomyces cerevisiae, UniProt P13393); array; double-stranded DNA, one strand shown; TBP alone).
For `ATP synthase subunit beta, human`, “log2 fold change” read -0.07 (CYB5R4 knockout human cells; PP4 interaction, 3xFLAG-PP4C IP-MS; concentration not given; relative to: CYB5R4 KO over parental).
`TASPAKETSF` — result for “normalised SPR binding response”: 57.5 normalised RU (construct, MBP fusion, human SCRIB, PDZ 3-4; surface plasmon resonance; peptide; concentration not given; higher = stronger binding).
The selectivity ratio of `MTVCNASQRQAHAQATAVSL` is reported as 0.4 ± 0.11 (H2882; phage binding; peptide; relative to: targeting over control phage).
`colistin` has an MIC of ≤ 1 µg/mL (Pseudomonas aeruginosa; clinical isolate RKI 393/11).
`POTE ankyrin domain E (human)` — result for “log2 fold change”: -0.39 (CYB5R4 knockout human cells; PP4 interaction, 3xFLAG-PP4C IP-MS; concentration not given; relative to: CYB5R4 KO over parental).
With `AUUCGUUUU (ssRNA)` the Kd was 5480 nM (U2AF2; sequencing of bound RNA; RNA; motif only).
`B3 (human TRIM28)`: “log2 fold change” -0.56 (CYB5R4 knockout human cells; PP4 interaction, 3xFLAG-PP4C IP-MS; concentration not given; relative to: CYB5R4 KO over parental).
`GSGAGSETSV` has a binding intensity of 0.421 (construct, MBP fusion, human SCRIB, PDZ 3-4; automated holdup; peptide, crude extract; concentration not given, corrected by standard peak, unit not given; relative to: biotin control resin, higher = stronger binding).
